Measured values from different studies.
Protocols differ between the studies behind these lines. “And” joins repeats or separate records; there may be more than shown. ± marks the error that the study gave.
ACE2: Angiotensin-converting enzyme 2 (ACE2, Homo sapiens, UniProt Q9BYF1)
CYP2A6: Cytochrome P450 2A6 (CYP2A6, Homo sapiens, UniProt P11509)

The Kd of `O=C(O)CNC(=O)C(CS)Cc1ccccc1` (stereo not shown) is reported as 1900 to 4500 µM (Metallo-beta-lactamase type 2, di-zinc (blaNDM-1, Klebsiella pneumoniae, UniProt C7C422); binding).
`CNc1ccccc1C(=O)O[C@H]1[C@@H](O)[C@H](n2cnc3c(N)ncnc32)O[C@@H]1COP(=O)(O)OP(=O)(O)O` gave a Kd of 4.69 µM (Serine/threonine-protein kinase ULK4 (ULK4, Homo sapiens, UniProt Q96C45); nucleotide binding, FRET; without Mg2+).
With `cGMP` the Kd was 0.36 µM and ~0.36 µM (Potassium/sodium hyperpolarization-activated cyclic nucleotide-gated channel 2, C-terminal region (Hcn2, Mus musculus, UniProt O88703); binding, isothermal titration calorimetry; 25 °C, C-linker/CNBD tetramer, high-affinity event).
The Kd of `CC#Cc1ccc2c(ccc3ccccc32)c1` is reported as 3.9 µM (Cytochrome P450 2A13 (Homo sapiens, UniProt Q16696); binding, absorbance; pH 7.4).
For `CC[C@H](C)[C@H](N)C(=O)N[C@@H](CC(C)C)C(=O)N[C@@H](CCCCN)C(=O)N[C@@H](CCC(=O)O)C(=O)N1CCC[C@H]1C(=O)N[C@H](C(=O)N[C@@H](CSC1CC(=O)N(CCCCCNC(=O)c2ccc(-c3c4ccc(=N)c(S(=O)(=O)O)c-4oc4c(S(=O)(=O)O)c(N)ccc34)c(C(=O)O)c2)C1=O)C(=O)NCC(=O)N[C@H](C(=O)O)C(C)C)C(C)C` (stereo partly shown), the Kd was 0.016 ± 0.004 µM (HLA class I histocompatibility antigen, A alpha chain, allele A*02:01 (Homo sapiens, UniProt P04439); binding, fluorescence polarization).
`CCCCCCCC[N+](CC)(CC)CCO` has a Kd of 12.7 µM (potassium channel; steady-state block; Doryteuthis pealeii; internal application, added: membrane potential +100 mV).
The Kd of `CCCn1c(=O)[nH]c2nc(-c3ccc(S(=O)(=O)O)cc3)[nH]c2c1=O` is reported as 0.81 µM (Adenosine receptor A2a (ADORA2A, Homo sapiens, UniProt P29274, A54L/K122A/T88A/V239A); binding, antagonist, surface plasmon resonance; 25 °C, 1% DMSO).
`[2Fe-2S](GS)4` has a Kd of 0.91 ± 0.06 µM (ATM1 (Saccharomyces cerevisiae, UniProt P40416); ATPase stimulation, activator; wild type, added: MgATP).
With `CC(=O)N(O)CCCCCNC(=O)CCC(=O)N(O)CCCCCNC(=O)CCC(=O)N(O)CCCCCN.[Fe+3]` the Kd was 0.044 ± 0.003 µM (Ferrichrome-binding lipoprotein FhuD (Listeria monocytogenes, UniProt Q8Y5U6); binding, tryptophan fluorescence quenching; His tag removed).
`CC[C@H](C)[C@H](NC(=O)[C@H](CCCCN)NC(=O)[C@@H](NC(=O)[C@@H](NC(=O)[C@H](CO)NC(=O)[C@H](CC(N)=O)NC(=O)[C@@H](NC(=O)[C@H](CC(N)=O)NC(=O)[C@H](CCCCN)NC(C)=O)C(C)C)[C@@H](C)CC)C(C)C)C(=O)N[C@@H](CCC(N)=O)C(=O)N[C@@H](C)C(=O)N[C@@H](Cc1ccccc1)C(=O)N[C@@H](Cc1ccccc1)C(=O)N[C@@H](CCCNC(=N)N)C(=O)N[C@@H](C)C(=O)N[C@@H](CCCNC(=N)N)C(=O)N[C@@H](CCCCN)C(=O)N[C@@H](C)C(=O)N[C@@H](CCC(N)=O)C(=O)N[C@@H](CC(=O)O)C(=O)N[C@@H](CC(=O)O)C(=O)N[C@@H](Cc1ccc(O)cc1)C(=O)N[C@@H](CCCNC(=N)N)C(N)=O` gave a Kd of 65 ± 12 µM (Calmodulin-1 (CALM1, Homo sapiens, UniProt P0DP23); binding, native gel titration; 1 h, 22 °C, added: Ca2+, calmodulin 35 µM).
`CC(=O)N[C@H](CCCNC(=N)N)C(=O)N[C@H](C)C(=O)N[C@H](CC(=O)O)C(=O)N[C@H](C)C(=O)N[C@H](CCCNC(=N)N)C(=O)N[C@H](C)C(=O)N[C@H](CC(=O)O)C(=O)N[C@H](C)C(=O)N[C@H](CCCNC(=N)N)C(=O)N[C@H](C)C(=O)N[C@H](CC(=O)O)C(=O)N[C@H](C)C(=O)N[C@H](CCCNC(=N)N)C(=O)N[C@H](C)C(=O)N[C@H](CC(=O)O)C(=O)N[C@H](C)C(N)=O` has a Kd of about 0.342 µM (trypsin; fluorescence polarization; 30 min, pH 7.0, added: FITC-labelled peptide).
The Kd of `O=C(O)c1cc(O)c2c(c1)C(=O)c1cccc(O)c1C2=O` is reported as 33.3 µM (ACE2; binding, SPR).
`CCCCCCCCCCCCCCCC(=O)N[C@@H](CC(C)C)C(=O)O` has a Kd of under 0.03 µM (Bifunctional cytochrome P450/NADPH--P450 reductase, heme domain (cyp102A1, Bacillus megaterium, UniProt P14779); substrate binding, substrate, UV-vis spectral titration; pH 7.4, room temperature, wild-type heme domain).
For `CCCCCC1=C/C(=C/c2[nH]c(-c3ccc[nH]3)cc2OC)N=C1C`, the Kd was 0.16 ± 0.06 µM (pre-miR-21 RNA; binding, intrinsic fluorescence; added: 1.0 µM pre-miR-21).
`CC(C)(O)[C@H]1O[C@H]2CC[C@@]3(C)[C@@](O)(CC[C@H]4Cc5c([nH]c6ccccc56)[C@@]43C)C2=CC1=O` gave a Kd of 0.0119 ± 0.0023 µM (Kcnma1 (Mus musculus, UniProt Q08460); BK channel current, inhibitor, inside-out patch clamp; Xenopus oocytes; closed channel affinity).
For `CC1=C[C@H](O)CC(C)(C)[C@H]1/C=C/C(C)=C/C=C/C(C)=C/C=C/C=C(C)/C=C/C=C(C)/C=C/C1=C(C)C[C@@H](O)CC1(C)C`, the Kd was 1.11 µM (Albumin (ALB, Homo sapiens, UniProt P02768); binding, SPR).
The Kd of `CCCCCCC[N+](CC)(CC)CC` is reported as 17.6 µM (potassium channel; steady-state block; Doryteuthis pealeii; internal application, added: membrane potential +100 mV).
With `CN[C@H]1C(=O)N[C@@H]2Cc3ccc(cc3)Oc3cc4cc(c3O[C@@H]3O[C@H](C(=O)O)[C@@H](O)[C@H](O)[C@H]3NC(=O)CCCCCCCCC(C)C)Oc3ccc(cc3Cl)[C@@H](O)[C@@H]3NC(=O)[C@H](NC(=O)[C@@H]4NC(=O)[C@@H](NC2=O)c2cc(cc(O)c2Cl)Oc2cc1ccc2O)c1ccc(O)c(c1)-c1c(O[C@H]2O[C@H](CO)[C@@H](O)[C@H](O)[C@@H]2O)cc(O)cc1[C@@H](C(=O)NCCCN(C)C)NC3=O` the Kd was 0.13 ± 0.02 µM (MBP-Lys-D-Ala-D-Ala fusion; binding, SPR; 25 °C).
With `CCCCCCCC[N+](CC)(CC)CCCO` the Kd was 7 µM (potassium channel; steady-state block; Doryteuthis pealeii; internal application, added: membrane potential +100 mV).
`c1ccc2c(CN3CCN(Cc4c[nH]c5ccccc45)CC3)c[nH]c2c1` gave a Kd of 1.89 µM (acetylcholine binding protein (Bulinus truncatus); binding, scintillation proximity; added: 5 nM [3H]epibatidine).
The Kd of `C[n+]1cn([C@@H]2O[C@H](COP(=O)(O)OP(=O)([O-])OP(=O)(O)OC[C@H]3O[C@@H](n4cnc5c(=O)[nH]c(N)nc54)[C@H](O)[C@@H]3O)[C@@H](O)[C@H]2O)c2nc(N)[nH]c(=O)c21` is reported as 324 µM (m7GpppX diphosphatase (DCS1, Saccharomyces cerevisiae, UniProt Q06151, H268N); isothermal titration calorimetry; 25 °C, open site, H268N).
The Kd of `c1ccc(-c2ccccc2)cc1` is reported as 2.7 µM (CYP2A6; binding, absorbance; pH 7.4).
With `Nc1ncnc2c1ncn2[C@H]1C[C@H](O)[C@@H](COP(=O)(O)OP(=O)(O)OP(=O)(O)O)O1` the Kd was 440 ± 53 µM (matB (Rhodopseudomonas palustris, UniProt Q6ND88, C106A/K488A/Q457C/R286C); binding, fluorescence titration; pH 7.0, 20 °C).
For `C#Cc1ccc2c(ccc3ccccc32)c1`, the Kd was 3.3 µM (CYP2A6; binding, absorbance; pH 7.4).
For `CC[N+](CC)(CC)CC(=O)Nc1c(C)cccc1C`, the Kd was 660 µM (sodium channel (rat brain), batrachotoxin-modified; open channel block, blocker, planar lipid bilayer, single channel; low-Kd period, +60 mV).
For `C[C@@H]1O[C@@H](O[C@H]2[C@H](O[C@H]3[C@H](O)[C@@H](O)C(O)O[C@@H]3CO)O[C@H](CO)[C@H](O)[C@@H]2O)[C@@H](O)[C@H](O)[C@@H]1O` (stereo partly shown), the Kd was 220 µM (Lectin (Erythrina crista-galli, UniProt P83410); BLI competition; solution Kd, added: LacNAc-biotin biosensor).
The Kd of `CCCCCCCC[N+](CCC)(CCC)CCC` is reported as 28.3 µM (potassium channel; steady-state block; Doryteuthis pealeii; internal application, added: membrane potential +100 mV).
The Kd of `CCSCCNC(=O)CCNC(=O)[C@H](O)C(C)(C)COP(=O)(O)OP(=O)(O)OC[C@H]1O[C@@H](n2cnc3c(N)ncnc32)[C@H](O)[C@@H]1OP(=O)(O)O` is reported as 10 ± 5 µM (Chloramphenicol acetyltransferase (cat, Escherichia coli, UniProt P62577); ligand, native ESI-MS; second ligand binding, gas phase, added: 200 mM ammonium acetate).
For `Nc1ncnc2c1ncn2[C@@H]1O[C@H](COP(=O)(O)O)[C@@H](OP(=O)(O)O)[C@H]1O`, the Kd was 4.01 ± 0.06 µM (Sulfotransferase 1A1 (Sult1a1, Rattus norvegicus, UniProt P17988); binding, TNP-AMP displacement; enzyme pretreated with GSH).
The Kd of `CC[C@H](C)[C@H](NC(=O)[C@@H]1CCCN1C(=O)[C@H](CC(C)C)NC(=O)[C@H](Cc1ccccc1)NC(=O)[C@H](CCC(=O)O)NC(=O)CNC(=O)[C@@H](NC(=O)[C@H](CCC(=O)O)NC(=O)[C@@H]1CCCN1C(=O)[C@H](CC(=O)O)NC(=O)[C@H](CC(C)C)NC(=O)[C@H](CCC(N)=O)NC(=O)[C@H](CC(C)C)NC(=O)[C@H](CCC(N)=O)NC(=O)[C@H](C)NC(=O)[C@H](Cc1ccccc1)NC(C)=O)[C@@H](C)O)C(=O)N[C@@H](CCC(N)=O)C(=O)N1CCC[C@H]1C(=O)N[C@@H](C)C(=O)N[C@@H](CCC(N)=O)C(N)=O` is reported as 0.007 µM (Kelch-like ECH-associated protein 1 (KEAP1, Homo sapiens, UniProt Q14145); binding, ITC; pH 7).
With `N#C[C@H](O[C@@H]1O[C@H](CO)[C@@H](O)[C@H](O)[C@H]1O)c1ccccc1` the Kd was 0.268 µM (ACE2; binding, SPR).
